Experimental data from different studies.
Every numbered part comes from another study and shows a few of its results, in no order. Positions count from the first letter of the parent shown.

Set 1 — method: protein-binding microarray; form: double-stranded DNA, one strand shown; medium: in vitro; tested at: 2540 nM top; notes: 60-bp whole probe; added: salmon DNA 0.4 mg/ml; relative to: random background probes; direction: higher = stronger binding; constant ends, left off below: GCCTAGCAC … GTCTTGATTCGCTTGACGCTGCTG
Target: Interferon regulatory factor 3, full length, phosphomimetic (IRF3, Homo sapiens, UniProt Q14653, residues 1-427, S386D/S396D/S398D/S402D/T404D/S405D)
Construct (chain): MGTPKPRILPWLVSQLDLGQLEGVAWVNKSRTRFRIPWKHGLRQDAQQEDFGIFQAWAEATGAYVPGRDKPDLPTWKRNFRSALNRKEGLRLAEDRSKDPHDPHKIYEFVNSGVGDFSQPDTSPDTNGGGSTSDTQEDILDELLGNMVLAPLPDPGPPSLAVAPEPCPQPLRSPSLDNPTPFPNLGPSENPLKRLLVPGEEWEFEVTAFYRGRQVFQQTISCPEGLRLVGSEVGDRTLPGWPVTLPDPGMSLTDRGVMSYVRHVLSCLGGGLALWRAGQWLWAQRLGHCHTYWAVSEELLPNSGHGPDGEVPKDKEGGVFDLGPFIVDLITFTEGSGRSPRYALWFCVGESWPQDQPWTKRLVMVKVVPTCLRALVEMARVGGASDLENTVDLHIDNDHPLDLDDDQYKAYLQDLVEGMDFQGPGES
Strand	fitted relative affinity [z-score]
TCCTCTGTCATTTTCTCTTAGTGCTAG	0.96
TTAGGTATCGGGACTGTGTTAGTGCTA	1.27
GACGGTATCGACAATCGGGACGTGCTA	0.332
GTCGATATCGGGTATCGAGACGTGCTA	0.976
GACGGTCTCGCTATCGGGACGTGCTAG	0.644
TTAGGACTGGACACTGGGTCAGTGCTA	-0.917
GAACCTTCAGCTCTAGGTTCGTGCTAG	0.423
AAGTTTCTCCTTTCGGAATAGTGCTAG	4.43
TAGGTTTCACTTTCCAAAACGTGCTAG	8.88
GATGATTTCAGTTCCGAGACGTGCTAG	2.8
TTAGCTCTCCTTCTCCTTTAGTGCTAG	2.86
TTAGGGTCCGGTTTCGGTTAGTGCTAG	5.09
GACGAAGTGGGGACTGGAGACGTGCTA	-0.899
GACGGTCTCATTTTCCTGACGTGCTAG	2.4
TTAGGTATTGACACTGGGTTAGTGCTA	-0.828
GACGGTATCAGTTTCGAGACGTGCTAG	5.74
TCATTTCTATGTCTGTTACTGTGCTAG	2.18
GTTATCCTATATCTGAACCGGTGCTAG	2.12
GCTCATCTGTCATGTTTGTCAGTGCTA	0.53
TTAGGTTTTGGGTTTCGGTTAGTGCTA	3.36
TTAGGTTTCGACACTGGGCTAGTGCTA	2.39
TTAGGTCTCCTTATCCTGTAGTGCTAG	2.72
TCACTTAGGTTTTCTGGTACTGTGCTA	0.119
GACGGTATCCCTTTCCTGACGTGCTAG	6.3

Set 2 — method: aptamer microarray, sandwich; form: DNA with 2'F-ANA; medium: in vitro; tested at: 200 nM; added: Cy3 exosite-II aptamer, 400 nM; direction: higher = stronger binding; strand: GGTTGGTGTGGTTGG
Target: Prothrombin, mature alpha-thrombin (F2, Homo sapiens, UniProt P00734)
Notes: whole 15-mer aptamer, many near background
Modification	mean fluorescence intensity
2'F-ANA at 3 4 11 14	383 a.u.
2'F-ANA at 1 6 7 9 14	55.5 a.u.
2'F-ANA at 1 2 3 4 5 9 11 12 13 14	48.3 a.u.
2'F-ANA at 1 2 3 4 5 6 7 11 14	49.6 a.u.
2'F-ANA at 1 2 3 6 8 10 11 13 15	59.8 a.u.
2'F-ANA at 1 2 3 5 6 7 9 10 13	54.5 a.u.
2'F-ANA at 5 6 7 10 12 13 15	58.4 a.u.
2'F-ANA at 2 5 10 12 13 15	47.5 a.u.
2'F-ANA at 2 3 4 8 9 10 11 12 13	214 a.u.
2'F-ANA at 1 2 3 4 6 8 10 11	61 a.u.
2'F-ANA at 4 7 9 10 11 12 13 14	61 a.u.
2'F-ANA at 1 2 4 9 13	84.3 a.u.
2'F-ANA at 2 4 5 7 8 9 10 15	55.5 a.u.
2'F-ANA at 3 5 7 8 15	168 a.u.
2'F-ANA at 1 2 3 7 10 14 15	96.8 a.u.
2'F-ANA at 3 8 9 10 11 13 14	391 a.u.
2'F-ANA at 1 5 6 7 9 14 15	52.1 a.u.
2'F-ANA at 1 2 3 9 14 15	76.4 a.u.
2'F-ANA at 2 8 11 12 14	202 a.u.
2'F-ANA at 2 4 9 10 11 13 14	69 a.u.

Set 3 — target: CCNE1, cyclin fold, Cln2 fusion (human); method: yeast growth competition, sequencing; medium: yeast; notes: weak parent motif; relative to: not given; direction: higher = stronger binding
Parent: AKAP12 docking peptide (human); GSPLKKLFTSTGL
Change	normalised enrichment score
L7A	-0.253
F8L	0.315
L4A	0.265
T11A	-0.685
K6A	1
P3A	1.04
L13A	0.535

Set 4 — method: RNA Bind-n-Seq; form: RNA; medium: in vitro; tested at: 365 nM; relative to: no-protein control; direction: higher = stronger binding
Target: RNA binding protein fox-1 homolog 2, RRM domain, GST-SBP tag (RBFOX2, Homo sapiens, UniProt O43251-10, residues 100-194)
Notes: natural RNA segment, single round, ends assumed
Constant ends, left off below: GGGAGUUCUACAGUCCGACGAUC … UGGAAUUCUCGGGUGCCAA
Target sequence (chain): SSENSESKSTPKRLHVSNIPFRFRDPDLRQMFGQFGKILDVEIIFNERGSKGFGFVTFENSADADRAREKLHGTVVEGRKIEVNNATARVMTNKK
Strand	RBNS enrichment (R)
UACUUAUUUAUCCUAGUAUUCCUAACCUGUCAGAAUAAUAAAUAUUGGAACCAAGACAUGGUAAACAUGUGUUGUGCUGGUUUCUGUUCAUUUAAAUCUGUCGGUUGCUG	0.46
GUUGGCCUGUGUGUUCCAUCUCUGCUCACCUCUGCCUCUACUCUGAGAUGCAGCCUGGCUGAUCCUCCCAUCUCUAAAACUGAAUGUCAAACCGUGCCAAAUGCUGGGGG	0.66
CUACUAUUUAUGAGGCCUCUGUGAGGCCAGCUCACUCCCCCUGCCUCUCCCACCCUGGGGGCAGGGUUCUAAGUAUGGGGAGUUCUUAUGCUGGCUUUUAGUGGUGUGUG	0.406
GGGCCGCAGAUGGCAAAGGGAGUGCCUGGGCCUGGUGACCCAGGGCUGGAUCCACCCCUGCGGAGCCCUGGGCCAGGCAGGUGUCUGCUGCUCACCUGGCUCUGGAGGGC	0.505
GGCCUUUCAGCUCCUUGUGUGCCUGUUGUGUCUGGUAAUGAUGUAGUUCAGAGUGGGAUUUUUUUCUUUGAACCUUAAAGGUUUUAUUUUAGAACGAGGCACAGAUCGCA	9.43
UUAUUCUAAAUCACCAGAAAAUUAAUUUCAGUUUCUAUUGGGAGUUUAUACCAAGAGAUUCUUCUAGAUCUCAUUGAUCCUUUUGAAGAGCUUUUUCUAUAUUAGGAUAU	0.359
AAACGCCCUACUUCUAAGCUCGUCCUUAGUAGCCCAGGCUGGUCUAGAACCUCUGGUCUUCCUUUCUCUGUCCCGAGUACUGAAAUUGCAGCAGACACCUUCAUGCCUUG	0.341
AUGCUGGUGUUUGAUUUCCUGUGUUGUUGCCUCAGCGUUAAGGGCAUUUCCGUUUGCAGUUCUACUAAAGACACUCUGAGAAAUAUUCCGAGUUUCGUAUUAACCUUUCC	0.901
ACUGUAAUGAUAAUCUUUCUCACGUAUAUACAUGCAACUUCUUGGCUUCAUUUCCAUGAAGCUGUUUCAAUAUAUUCAGUAUACUUUGUCCUUAAUGCUGCUUCUGUUAA	0.512
GCGGUGUUGAACUGUUUGUGUAGAAAGCCAUCUUUCUGUCUCUUAAGCUCCUCUGGUUUGUCUGGUAGGUGUAAUUACGCCUGGCGAGCCCUGGGCCCGGGUUGCUAAGC	0.448
GAGUAGAUUUUCUUGGAUUUCAGAACAUCUAGCAUGACUCUGAAGGAUACCACAUGUUUUAUAUAUAAAUAAUUACUGUUUAUGAUAUAGACAUUGAUAUUGACUAUUUA	3.02
UUUUUUAAAAUACAUGAAAAAUGUAGUAAAUCACUAAAAUUCAUUUAUCCUUCUCCUUUGAAAGAUUUUCAAUAUUUUAGUAUAAUAAAGAGCUGUAUGUUGAGCCAUCU	0.334

Set 5 — method: universal PBM; form: double-stranded DNA, one strand shown; medium: in vitro; tested at: 600 nM; direction: higher = stronger binding
Target: Sal-like protein 4, full length isoform A (SALL4, Homo sapiens, UniProt Q9UJQ4, residues 1-1053)
UniProt Q9UJQ4, sequence (whole entry, looked up): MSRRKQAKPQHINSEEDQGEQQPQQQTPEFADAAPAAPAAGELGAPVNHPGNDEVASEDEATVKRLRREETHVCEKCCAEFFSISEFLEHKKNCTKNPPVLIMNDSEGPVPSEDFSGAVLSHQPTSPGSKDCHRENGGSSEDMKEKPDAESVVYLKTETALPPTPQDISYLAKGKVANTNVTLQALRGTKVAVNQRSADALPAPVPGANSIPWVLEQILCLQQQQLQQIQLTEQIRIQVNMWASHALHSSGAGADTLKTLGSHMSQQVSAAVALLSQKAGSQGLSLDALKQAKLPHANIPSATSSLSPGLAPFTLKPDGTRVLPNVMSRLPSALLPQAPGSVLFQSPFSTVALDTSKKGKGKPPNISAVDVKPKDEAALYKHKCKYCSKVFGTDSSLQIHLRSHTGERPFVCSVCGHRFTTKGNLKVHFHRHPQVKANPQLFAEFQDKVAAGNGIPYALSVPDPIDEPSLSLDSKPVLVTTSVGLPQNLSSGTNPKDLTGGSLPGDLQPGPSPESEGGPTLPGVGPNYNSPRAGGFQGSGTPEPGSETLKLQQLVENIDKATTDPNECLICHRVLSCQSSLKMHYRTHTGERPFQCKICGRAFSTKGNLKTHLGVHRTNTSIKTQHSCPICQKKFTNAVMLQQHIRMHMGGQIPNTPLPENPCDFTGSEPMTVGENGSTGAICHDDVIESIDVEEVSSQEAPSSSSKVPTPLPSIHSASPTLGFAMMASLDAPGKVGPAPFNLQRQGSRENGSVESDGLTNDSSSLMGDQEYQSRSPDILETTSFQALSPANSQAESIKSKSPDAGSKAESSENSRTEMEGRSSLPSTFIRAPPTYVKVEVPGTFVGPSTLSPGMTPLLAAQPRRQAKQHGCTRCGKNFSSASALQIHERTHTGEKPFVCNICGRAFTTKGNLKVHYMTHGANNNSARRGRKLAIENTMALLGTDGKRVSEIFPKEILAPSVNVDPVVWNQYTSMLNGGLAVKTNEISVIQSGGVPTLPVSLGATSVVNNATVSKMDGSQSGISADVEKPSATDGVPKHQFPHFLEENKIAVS
Notes: 8-mer, flanks averaged, mean of replicates
Strand	E-score
GTTGATGA	0.163
ATAAGCTG	0.153
ACAGGCAG	-0.00532
AATATTAG	0.426
AAATGGGG	-0.0372
CAGACTTC	-0.0435
CATTAAGA	0.181
AGTTACGG	0.0314
AGGTACAG	0.0462
CCCTAGCA	-0.15
AGCCCACT	-0.17
TAAACTTA	0.235
GACCGCCC	-0.266
CGCCCTCC	-0.297
ATAACCAT	0.267
GCAGGCAA	-0.0475
GGAGTGAC	-0.141
GCTTGTCA	0.041
GACTAAAC	-0.121
ATTCGCTC	0.116

Further values, each from its own experiment
Molecule	target	assay	system	setting	how to read	endpoint	value
PhoQ, residues 284 288 289 292 302 303 AGHLVA	PhoP, residues 12 14 15 18 19 TQAIL (Escherichia coli, UniProt P23836)	Sort-seq, item: YFP reporter	E. coli	PhoQ-PhoP variant library, added: 10 µM Mg2+	relative to: high Mg2+ state, higher = stronger signaling	fold induction	22.9

A few entries again (set 5):
Strand	E-score
AGCCCACT	-0.17
TAAACTTA	0.235
GACCGCCC	-0.266
CGCCCTCC	-0.297
ATAACCAT	0.267
GCAGGCAA	-0.0475
GGAGTGAC	-0.141
GCTTGTCA	0.041
GACTAAAC	-0.121
ATTCGCTC	0.116
